# Results gathered from unrelated publications.
# Compare with care: the assays were run in different laboratories. Several values in a cell are separate wells, animals, samples, runs or records. Numbers after ± are the reported error.
SMILES,test,system,setting,how to read,endpoint,result
C[C@@H](Nc1c(-c2c(F)cc(C#N)cc2F)c(Cl)nc2ncnn12)C(C)(C)C,,human liver microsomes,"2 µg/mL, pH 7.4",,hepatic intrinsic clearance,0.33 mL/min/kg
c1cc(C2CCCCC2)ccc1-c1ccc(N2CCCC2)nc1,liver microsome stability,mouse liver microsomes,1 µM,,hepatic clearance,51 mL/min/kg
COC(=O)[C@@]1(C)C=C(C(=O)Nc2cccc(C(=O)Nc3ccc(Nc4nccc(-c5cccnc5)n4)c(C)c3)c2)C(=O)CC1,metabolic stability,"Wistar rat, male, primary hepatocytes","1 µM, 90 min",,compound remaining,1.4%
O=C(CN1CN(c2ccccc2)C2(CCN(C(=O)c3cc4cn[nH]c4cn3)CC2)C1=O)NCC(F)(F)F,,human liver microsomes,,,CLint,30 µL/min/mg protein
Cn1ncc2cc(CN3CCC(F)(F)C(COc4ccc(C#N)c(F)c4)C3)ccc21 (stereo not drawn),equilibrium dialysis,mouse plasma,,,fu,0.008
C=C1C[C@]2(C(=O)OC)C=C(C(=O)Nc3cccc(C(=O)Nc4ccc(Nc5nccc(-c6cccnc6)n5)c(C)c4)c3)C(=O)[C@H]1C2,,"Wistar rat, male, plasma","10 µM, 5 min",,compound remaining,47%
O=C(CN1CCCCC1)Nc1ccc(C2CCCCC2)cc1,,cynomolgus liver microsomes,1 µM,,hepatic clearance,39 mL/min/kg
C=CC(=O)Nc1cc(Nc2nccc(-c3c[nH]c4ccccc34)n2)c(OC)cc1N(C)CCN(C)C,storage stability,human plasma samples,"30 d, -80 °C, LLOQ level",baseline: nominal concentration,percentage recovery,19%
COc1cccc(OC)c1-c1cc(C(=O)NC2(C(=O)O)C3CC4CC(C3)CC2C4)nn1-c1ccc(C(=O)N(C)CCCN(C)CCCN(C)C(=O)[C@H](CCCCNC(=O)[C@H](CC(C)C)NC(=O)C2OC2C(=O)O)NC(=O)CN2CCN(CC(=O)[O-])CCN(CC(=O)[O-])CCN(CC(=O)[O-])CC2)cc1C(C)C.[177Lu+3] (mixture of isomers),,"mouse, HT-29 xenograft","168 h post injection, biodistribution",baseline: tumour over bone uptake,tumour-to-bone ratio,9.75
CCn1cc(-c2cc(Cn3ccnc3)cc3c2CCN([C@H](c2cc(OC)ccn2)C2CC2)C3=O)c(C(F)(F)F)n1,,"CD-1 mouse, male, plasma","oral, 10 mg/kg",,AUC extrapolated,0.6%
O=C(c1ccc([C@H]2[C@@H](F)[C@@H](F)C[C@@H](F)[C@H]2F)cc1)N1CCCC1,liver microsome stability,cynomolgus liver microsomes,1 µM,,hepatic clearance,33 mL/min/kg
CCC1=[N+]2N=C(/C=C/C=C/c3ccccc3)C(=O)O[B-]2(c2ccccc2)Oc2cc(N(CC)CC)ccc21 (stereo not drawn),,toluene,,,fluorescence quantum yield,0.32
Cc1nc(N)nc2c1C(=O)N[C@@H](c1ccc(F)cc1-c1cccc(O[11CH3])n1)C2,ex vivo biodistribution,"healthy mice, stomach","60 min post-injection, baseline, vehicle pre-treatment",,tracer uptake,1.5 ± 0.2 %ID
CS(=O)(=O)c1ccc(-c2ccc([C@H]3[C@@H](F)[C@@H](F)C[C@@H](F)[C@H]3F)cc2)cn1,liver microsome stability,rat liver microsomes,1 µM,,hepatic clearance,6.1 mL/min/kg
CCCCCCCOc1ccc(CC[C@](N)(CO)COP(=O)(O)O)cc1C(F)(F)F,,"healthy men, plasma","oral, 0.125 mg once daily, day 1, fed state",,AUCτ,4.52 ng·h/mL
COc1cccc(OC)c1-c1cc(C(=O)NC2(C(=O)O)C3CC4CC(C3)CC2C4)nn1-c1ccc(C(=O)N(C)CCOCCN(C)C(=O)[C@H](CCCCNC(=O)[C@H](CC(C)C)NC(=O)C2OC2C(=O)O)NC(=O)CN2CCN(CC(=O)[O-])CCN(CC(=O)[O-])CCN(CC(=O)[O-])CC2)cc1C(C)C.[177Lu+3] (mixture of isomers),,"mouse, HT-29 xenograft, kidney",4 h post injection,,tissue uptake,21 %ID/g
CCCC[C@H](NC(=O)CNC(=O)CNC(=O)[C@H](CCCCNC(=O)[C@H](CC(=O)O)NC(=O)C(C)c1ccc(CC(C)C)cc1)NC(=O)CN1CCN(CC(=O)O)CCN(CC(=O)O)CCN(CC(=O)O)CC1)C(=O)N[C@H]1CC(=O)NCCCC[C@@H](C(N)=O)NC(=O)[C@H](Cc2c[nH]c3ccccc23)NC(=O)[C@H](CCCNC(=N)N)NC(=O)[C@@H](Cc2ccccc2)NC(=O)[C@H](Cc2c[nH]cn2)NC1=O (stereo partly drawn) [lutetium-177 labelled],,"C57 mice, tumour","intravenous, 0.037 MBq, 4 h",baseline: blood,tumour-to-tissue ratio,43.4
CCN(CC)c1ccc2c(c1)O[B-]1(c3ccc(C)cc3)OC(=O)C(c3ccccc3)=N[N+]1=C2 (stereo not drawn),,toluene,,,fluorescence quantum yield,0.66
COc1cccc(OC)c1-c1cc(C(=O)NC2(C(=O)O)C3CC4CC(C3)CC2C4)nn1-c1ccc(C(=O)N(C)CCOCCOCCN(C)C(=O)[C@H](CCCCNC(=O)[C@H](CC(C)C)NC(=O)C2OC2C(=O)O)NC(=O)CN2CCN(CC(=O)[O-])CCN(CC(=O)[O-])CCN(CC(=O)[O-])CC2)cc1C(C)C.[177Lu+3] (mixture of isomers),,"mouse, HT-29 xenograft","72 h post injection, biodistribution",baseline: tumour over kidney uptake,tumour-to-kidney ratio,0.37
OCCn1nc(-c2ccccc2)c2c(Cl)c(-c3ccccc3)nnc21,,"mouse juvenile P6, plasma","intraperitoneal, 10 mg/kg",,AUC,5.7 µM·h
CNC(=O)c1ccc(C2CCCCC2)cc1,liver microsome stability,mouse liver microsomes,1 µM,,hepatic clearance,87 mL/min/kg
C=C[C@]1(C)C[C@@H](OC(=O)CSc2ccc(NC(=O)c3ccco3)cc2)[C@]2(C)[C@H](C)CC[C@]3(CCC(=O)[C@H]32)[C@@H](C)[C@@H]1O,,"Mycoplasma gallisepticum-infected chickens, plasma","intramuscular, 40 mg/kg, 24 h",,plasma concentration,1.81 ng/mL and 2.85 ng/mL and 7.31 ng/mL and 1.24 ng/mL
O=S(=O)(O)c1cc(O)c(O)c(S(=O)(=O)O)c1,UV-vis spectroscopy,1 M H2SO4 in water,"pH 0, 0 wt %, no hydrotrope",,aqueous solubility,530 ± 10 mM
COc1ccc(CCC(C)N2CCc3cc(O[11CH3])c(OC)cc3C2)cc1 (racemic),,plasma,"injection, 30 min",baseline: radioactivity,parent compound fraction,12.5 ± 2.9%
Cc1cc(F)ccc1-c1cc(N2C[C@H]3COC(O)CN3C[C@H]2CO)ncc1N(C)C(=O)C(C)(C)c1cc(C(F)(F)F)cc(C(F)(F)F)c1 (stereo partly drawn),,pooled human liver microsomes,"pH 7.4, substrate depletion",,pathway contribution to clearance,100%
C=C(NC(=O)c1csc(-c2nc3c(cc2O)-c2nc(cs2)C(=O)NC(C(C)O)C(=O)NC(=C(C)OC)c2nc(cs2)C(=O)NC2c4nc(cs4)C(=O)NC(COC(=O)c4c5c6c(cccc6n4O)COC(=O)C(OC4CC(C)(O)C(N(C)C)C(C)O4)C2OC5)c2nc-3cs2)n1)C(N)=O (stereo not drawn),,"cynomolgus monkey, both sexes, plasma","intravenous infusion, 1.5 mg/kg twice daily, 0 to 6 h, first dose",,Cmax,13300 ± 2810 ng/mL
COc1ccc2c(c1)CN(C(=O)CCN1CCC(Cc3ccccc3)CC1)CCS2,,"paroxysmal atrial fibrillation patients, plasma","oral, 540 mg, 60 min",,unbound plasma concentration,15 ± 3 nM
COC1C=COC2(C)Oc3c(C)c(O)c4c(c3C2=O)C2=NC3(CCN(CC(C)C)CC3)NC2=C(NC(=O)C(C)=CC=CC(C)C(O)C(C)C(O)C(C)C(OC(=O)c2cccnc2)C1C)C4=O (stereo not drawn),,"CD-1 mouse, plasma","oral, dose not given, efficacy dose",,fAUC/MIC ratio,151
OC1(C(F)(F)F)CCN(c2nc(Nc3ccnc(C(F)(F)F)c3)nc(-c3cccc(C(F)(F)F)n3)n2)C1 (stereo not drawn),,"monkey, plasma","oral, 3 mg/kg",,Cmax,905 ± 161 ng/mL
COCC1CN(C2CCN(c3cc(OC)c(Nc4ncc(Br)c(Nc5ccc6c(c5P(C)(C)=O)OCCO6)n4)cc3C)CC2)C1,,"EGFR-mutant NSCLC patients, plasma","oral, 60 mg single dose, geometric mean",,t1/2,34.5 h
NS(=O)(=O)c1cccc(-c2ccc([C@H]3[C@@H](F)[C@@H](F)C[C@@H](F)[C@H]3F)cc2)c1,hepatocyte stability,cryopreserved human hepatocytes,1 µM,,hepatic clearance,6.2 mL/min/kg
O=C([O-])CN1CCN(CC(=O)[O-])CCN(CC(CCCc2ccccc2[N+](=O)[O-])N(CC(=O)[O-])CC(=O)[O-])CC1.[90Y+3] (stereo not drawn),TLC,human serum,"72 h, pH 7, 37 °C",,intact radiolabelled complex,99.8 ± 0.1%
O=S1(=O)CC2CCCCC2CS1 (stereo not drawn),"phase solubility, NMR",water,"25 °C, added: hydroxypropyl-β-cyclodextrin 571 mM",,solubility,64.8 mM
Cc1nn(-c2nc3c(F)cc(F)cc3s2)c(O)c1C(c1ccc(C(F)(F)F)cc1)c1c(C)nn(-c2nc3c(F)cc(F)cc3s2)c1O,,"ICR mouse, plasma","intraperitoneal, 10 mg/kg",,AUC extrapolated observed,9.59% and 14.1% and 4.07%
COc1cccc(OC)c1-c1cc(C(=O)NC2(C(=O)O)C3CC4CC(C3)CC2C4)nn1-c1ccc(C(=O)NCCNC(=O)[C@H](CCCCNC(=O)[C@H](CC(C)C)NC(=O)C2OC2C(=O)O)NC(=O)CN2CCN(CC(=O)[O-])CCN(CC(=O)[O-])CCN(CC(=O)[O-])CC2)cc1C(C)C.[177Lu+3] (mixture of isomers),,"mouse, HT-29 xenograft, HT-29 tumour",72 h post injection,,tissue uptake,3.6 %ID/g
Nc1ncc(-c2ccc(C3CCCCC3)cc2)cn1,liver microsome stability,human liver microsomes,"1 µM, without NADPH",,hepatic clearance,4.3 mL/min/kg
CCC(CC)n1c(Cc2ccco2)nc2cc(C(=O)N[C@@H](CC(=O)O)c3ccccc3)ccc21,,"male Sprague-Dawley rat, plasma","intravenous, 1 mg/kg",,MRT(0-inf),1.51 h
[123I]c1ccc2nc(-c3ccc(-n4ccnn4)nc3)cn2c1,,"male Wistar rat, large intestine","intravenous, 4 MBq, 24 h",,tissue uptake,0.122 ± 0.026 %ID/g
C=CC(=O)N1CCCC(n2c(=O)c3ncccc3n(Cc3ccc(Oc4ccccc4)cc3)c2=O)C1 (stereo not drawn),,"male BALB/c mouse, plasma","oral, 200 mg/kg, 30 min",,concentration,30400 ng/mL
